Experimental data pooled from the literature.
A part holds a random share of what one study measured. Values joined by “and” are separate records of one study, mostly repeats; a detail may differ.
Chain of UniProt P10721 (whole entry, unmodified, looked up): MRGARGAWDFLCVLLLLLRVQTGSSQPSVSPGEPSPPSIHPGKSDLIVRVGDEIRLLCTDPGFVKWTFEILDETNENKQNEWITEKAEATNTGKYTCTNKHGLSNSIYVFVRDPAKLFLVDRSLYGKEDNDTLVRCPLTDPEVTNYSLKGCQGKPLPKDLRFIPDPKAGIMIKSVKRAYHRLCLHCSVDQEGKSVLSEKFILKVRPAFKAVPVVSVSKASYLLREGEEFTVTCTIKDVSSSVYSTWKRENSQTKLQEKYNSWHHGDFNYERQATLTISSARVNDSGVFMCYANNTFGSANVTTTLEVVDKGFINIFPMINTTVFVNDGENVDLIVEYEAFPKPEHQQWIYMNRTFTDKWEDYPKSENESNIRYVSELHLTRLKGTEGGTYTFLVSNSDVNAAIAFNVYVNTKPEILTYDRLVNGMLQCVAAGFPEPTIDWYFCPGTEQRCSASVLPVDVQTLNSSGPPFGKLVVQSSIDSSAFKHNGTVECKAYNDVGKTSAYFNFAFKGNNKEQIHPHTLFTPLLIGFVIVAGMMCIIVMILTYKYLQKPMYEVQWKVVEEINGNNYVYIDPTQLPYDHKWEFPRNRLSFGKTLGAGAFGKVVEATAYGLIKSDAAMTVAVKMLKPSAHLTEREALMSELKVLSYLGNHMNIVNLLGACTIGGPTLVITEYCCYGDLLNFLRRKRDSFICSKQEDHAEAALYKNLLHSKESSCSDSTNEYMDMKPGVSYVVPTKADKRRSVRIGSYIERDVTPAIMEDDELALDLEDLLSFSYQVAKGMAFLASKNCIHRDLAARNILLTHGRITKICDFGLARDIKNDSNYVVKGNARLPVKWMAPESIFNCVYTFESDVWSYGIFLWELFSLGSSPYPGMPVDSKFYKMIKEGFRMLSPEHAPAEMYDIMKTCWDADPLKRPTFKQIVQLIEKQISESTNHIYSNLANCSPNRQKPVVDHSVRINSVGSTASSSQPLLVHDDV
Chain of UniProt O75385 (whole entry, looked up): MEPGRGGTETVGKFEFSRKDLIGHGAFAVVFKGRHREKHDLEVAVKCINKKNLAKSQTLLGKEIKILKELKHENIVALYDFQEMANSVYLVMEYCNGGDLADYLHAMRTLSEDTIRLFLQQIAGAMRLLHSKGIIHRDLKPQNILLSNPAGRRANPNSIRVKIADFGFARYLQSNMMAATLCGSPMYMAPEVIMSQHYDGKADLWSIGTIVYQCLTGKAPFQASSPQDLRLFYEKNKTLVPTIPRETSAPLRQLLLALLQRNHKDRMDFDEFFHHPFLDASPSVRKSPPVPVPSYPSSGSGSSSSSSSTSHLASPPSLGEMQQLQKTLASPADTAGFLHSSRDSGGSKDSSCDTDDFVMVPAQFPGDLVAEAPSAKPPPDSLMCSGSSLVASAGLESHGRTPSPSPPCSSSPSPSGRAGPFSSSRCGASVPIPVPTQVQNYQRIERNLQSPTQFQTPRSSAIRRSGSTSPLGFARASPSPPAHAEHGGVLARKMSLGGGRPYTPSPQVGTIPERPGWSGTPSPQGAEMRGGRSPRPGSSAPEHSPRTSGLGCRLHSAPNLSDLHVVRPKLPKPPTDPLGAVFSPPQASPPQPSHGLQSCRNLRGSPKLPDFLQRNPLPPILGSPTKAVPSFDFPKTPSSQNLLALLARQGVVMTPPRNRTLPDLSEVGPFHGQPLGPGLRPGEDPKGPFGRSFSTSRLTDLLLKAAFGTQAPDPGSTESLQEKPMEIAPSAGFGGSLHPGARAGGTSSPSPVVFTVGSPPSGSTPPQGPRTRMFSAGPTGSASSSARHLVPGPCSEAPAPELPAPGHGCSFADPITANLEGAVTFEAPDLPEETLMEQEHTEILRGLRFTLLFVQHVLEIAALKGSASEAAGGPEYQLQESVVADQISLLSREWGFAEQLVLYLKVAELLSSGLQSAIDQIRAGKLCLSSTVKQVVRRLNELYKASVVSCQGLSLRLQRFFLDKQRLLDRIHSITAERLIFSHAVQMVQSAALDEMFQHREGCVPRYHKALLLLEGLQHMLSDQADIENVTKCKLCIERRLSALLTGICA
Chain of UniProt Q96RR4 (whole entry, looked up): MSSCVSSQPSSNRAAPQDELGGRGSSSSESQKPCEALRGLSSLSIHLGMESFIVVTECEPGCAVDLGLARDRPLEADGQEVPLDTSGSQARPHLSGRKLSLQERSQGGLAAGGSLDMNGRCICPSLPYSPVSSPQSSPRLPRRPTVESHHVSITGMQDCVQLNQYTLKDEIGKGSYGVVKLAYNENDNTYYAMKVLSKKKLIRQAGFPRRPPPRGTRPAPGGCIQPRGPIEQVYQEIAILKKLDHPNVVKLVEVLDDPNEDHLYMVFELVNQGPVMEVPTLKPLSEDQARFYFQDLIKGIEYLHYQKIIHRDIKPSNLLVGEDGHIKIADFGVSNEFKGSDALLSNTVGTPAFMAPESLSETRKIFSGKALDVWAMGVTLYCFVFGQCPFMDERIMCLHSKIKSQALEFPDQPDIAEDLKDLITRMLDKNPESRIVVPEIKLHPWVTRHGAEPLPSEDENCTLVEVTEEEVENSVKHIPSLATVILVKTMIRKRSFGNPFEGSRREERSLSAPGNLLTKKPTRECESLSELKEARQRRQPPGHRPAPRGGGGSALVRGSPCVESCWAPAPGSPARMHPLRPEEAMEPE
Chain of UniProt Q16620 (whole entry, looked up): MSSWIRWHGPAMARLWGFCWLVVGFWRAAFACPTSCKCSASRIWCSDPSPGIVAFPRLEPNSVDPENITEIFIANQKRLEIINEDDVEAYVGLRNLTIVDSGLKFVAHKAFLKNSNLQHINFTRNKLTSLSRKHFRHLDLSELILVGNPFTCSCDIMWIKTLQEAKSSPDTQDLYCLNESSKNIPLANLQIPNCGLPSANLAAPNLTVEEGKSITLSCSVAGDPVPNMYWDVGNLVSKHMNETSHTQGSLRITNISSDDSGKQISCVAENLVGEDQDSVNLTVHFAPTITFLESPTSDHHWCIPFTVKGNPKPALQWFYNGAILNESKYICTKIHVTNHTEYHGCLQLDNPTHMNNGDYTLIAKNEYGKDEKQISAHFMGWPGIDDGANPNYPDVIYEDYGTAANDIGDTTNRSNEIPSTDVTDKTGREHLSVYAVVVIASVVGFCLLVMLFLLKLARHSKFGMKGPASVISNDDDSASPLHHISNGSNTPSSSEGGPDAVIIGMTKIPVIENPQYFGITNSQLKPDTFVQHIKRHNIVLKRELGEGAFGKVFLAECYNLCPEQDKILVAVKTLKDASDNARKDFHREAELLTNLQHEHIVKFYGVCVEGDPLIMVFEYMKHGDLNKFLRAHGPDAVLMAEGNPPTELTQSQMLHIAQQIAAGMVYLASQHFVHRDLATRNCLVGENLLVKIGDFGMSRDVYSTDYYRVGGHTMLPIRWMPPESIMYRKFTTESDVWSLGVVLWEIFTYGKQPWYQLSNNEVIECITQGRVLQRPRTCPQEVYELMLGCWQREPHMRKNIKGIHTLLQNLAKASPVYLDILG
Chain of UniProt P50750 (whole entry, looked up): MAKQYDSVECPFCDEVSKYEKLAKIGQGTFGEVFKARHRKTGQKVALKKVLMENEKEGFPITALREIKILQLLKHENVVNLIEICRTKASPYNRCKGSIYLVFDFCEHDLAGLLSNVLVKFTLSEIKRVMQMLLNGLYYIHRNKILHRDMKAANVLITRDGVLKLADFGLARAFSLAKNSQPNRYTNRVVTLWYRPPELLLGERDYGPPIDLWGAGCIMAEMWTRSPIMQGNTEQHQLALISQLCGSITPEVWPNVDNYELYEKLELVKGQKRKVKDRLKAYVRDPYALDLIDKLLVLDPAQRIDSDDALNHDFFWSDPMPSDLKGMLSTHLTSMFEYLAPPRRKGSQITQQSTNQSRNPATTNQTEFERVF

Study 1 — cell line: Huh-7; concentration: 10 µM; time: 24 h; quantity: viability
SMILES = C=CCSCC1Nc2cc(Cl)c(S(N)(=O)=O)cc2S(=O)(=O)N1 (stereo not drawn); value = 97.1%
SMILES = CN/C(=N/CCSCc1nc[nH]c1C)NC#N; value = 103%
SMILES = CC(=O)c1ccc2c(c1)N(CCCN(C)C)c1ccccc1S2; value = 99.1%
SMILES = O=C(Oc1ccccc1C(=O)O)c1ccccc1O; value = 102%
SMILES = CC1(C)O[C@@H]2C[C@H]3[C@@H]4CCC5=CC(=O)C=C[C@]5(C)[C@H]4[C@@H](O)C[C@]3(C)[C@]2(C(=O)CO)O1; value = 89.3%
SMILES = NC(=O)NC1NC(=O)NC1=O (stereo not drawn); value = 91.9%
SMILES = Nc1ccc(S(=O)(=O)Nc2nccs2)cc1; value = 108%
SMILES = Cc1nnc(NS(=O)(=O)c2ccc(N)cc2)s1; value = 101%
SMILES = CC(=O)NCCCS(=O)(=O)O; value = 100%

Study 2 — cell line: mouse MPNST tumor cells; method: high-content immunofluorescence imaging; item: nuclear SOX9; concentration: 10 µM; time: 12 h; notes: mean of 2 replicates; relative to: DMSO control; direction: higher = more nuclear SOX9; quantity: nuclear SOX9 intensity
Structure (SMILES) = Cc1cc(C(C)Nc2ccccc2)c2nc(N3CCOCC3)cc(=O)n2c1 (stereo not drawn); value = 86.6 % of DMSO
Structure (SMILES) = OC1C(CCl)OC(n2cnc3c(NC4CC5CCC4C5)ncnc32)C1O (stereo not drawn); value = 94.6 % of DMSO
Structure (SMILES) = COc1ccccc1N1CCN(CC(O)COc2cccc3ccccc23)CC1 (stereo not drawn); value = 124 % of DMSO and 108 % of DMSO
Structure (SMILES) = CC(=O)NNC(=O)N1Cc2ccccc2Oc2ccc(Cl)cc21; value = 102 % of DMSO
Structure (SMILES) = CN(C)CCN(Cc1cccs1)c1ccccn1; value = 112 % of DMSO
Structure (SMILES) = CN1C(C)(C)CCCC1(C)C; value = 82.9 % of DMSO
Structure (SMILES) = Cc1cc(C2CCCCC2)n(O)c(=O)c1; value = 158 % of DMSO
Structure (SMILES) = Cn1c(=O)c2[nH]cnc2n(C)c1=O; value = 113 % of DMSO
Structure (SMILES) = COc1ccc(S(=O)(=O)N2C(=O)[C@@](c3ccccc3OC)(N3C[C@H](O)C[C@H]3C(=O)N(C)C)c3cc(Cl)ccc32)c(OC)c1; value = 110 % of DMSO
Structure (SMILES) = CCCCCCOc1cc2c(cc1N(C)c1ncc(C(=O)O)cn1)C(C)(C)CCC2(C)C; value = 97.9 % of DMSO
Structure (SMILES) = Clc1cccc(Cl)c1CSc1nnc(-c2cnccn2)s1; value = 153 % of DMSO
Structure (SMILES) = COc1ccc(CC2NCCc3c2[nH]c2ccc(C)cc32)cc1OC (stereo not drawn); value = 174 % of DMSO
Structure (SMILES) = CCOc1ncc(S(=O)(=O)N2CCN(CC)CC2)cc1-c1nc2c(CC)n(CCOC)nc2c(=O)[nH]1; value = 91.1 % of DMSO
Structure (SMILES) = CN(C)CCC(c1ccc(Cl)cc1)c1ccccn1 (stereo not drawn); value = 111 % of DMSO

Study 3 — method: competition with immobilised ligand; concentration: 1 µM; quantity: remaining binding
Structure (SMILES): Cc1nc(N2CC[C@@H](O)C2)ncc1-c1cc(C(F)(F)F)cc2[nH]ncc12
target = ULK1 (Homo sapiens, UniProt O75385); test = binding; value = 76%
target = NTRK2 (Homo sapiens, UniProt Q16620); test = cell-free assay; value = 53%
target = KIT (Homo sapiens, UniProt P10721, V559D/V654A); test = cell-free assay; value = 94%
target = KIT (Homo sapiens, UniProt P10721, L576P); test = cell-free assay; value = 69%
target = EGFR (Homo sapiens, UniProt P00533, G719S); test = cell-free assay; value = 100%
target = PRKG2 (Homo sapiens, UniProt Q13237); test = binding; value = 100%
target = TAOK1 (Homo sapiens, UniProt Q7L7X3); test = binding; value = 91%
target = DYRK1A (Homo sapiens, UniProt Q13627); test = cell-free assay; value = 73%
target = FER (Homo sapiens, UniProt P16591); test = binding; value = 97%
target = CAMKK2 (Homo sapiens, UniProt Q96RR4); test = binding; value = 100%
target = PTK6 (Homo sapiens, UniProt Q13882); test = binding; value = 89%
target = PIKFYVE (Homo sapiens, UniProt Q9Y2I7); test = cell-free assay; value = 88%
target = CDK9 (Homo sapiens, UniProt P50750); test = binding; value = 87%
target = Ribosomal protein S6 kinase alpha-1, N-terminal kinase domain (RPS6KA1, Homo sapiens, UniProt Q15418); test = binding; value = 100%
target = ERBB3 (Homo sapiens, UniProt P21860); test = binding; value = 100%
target = SRMS (Homo sapiens, UniProt Q9H3Y6); test = cell-free assay; value = 81%

Study 4 — effect on: enzyme activity; mode: inhibitor; concentration: 0.5 µM; relative to: control; quantity: remaining activity
Target: Homeodomain-interacting protein kinase 1 (HIPK1, Homo sapiens, UniProt Q86Z02)
Chain of UniProt Q86Z02 (whole entry, looked up): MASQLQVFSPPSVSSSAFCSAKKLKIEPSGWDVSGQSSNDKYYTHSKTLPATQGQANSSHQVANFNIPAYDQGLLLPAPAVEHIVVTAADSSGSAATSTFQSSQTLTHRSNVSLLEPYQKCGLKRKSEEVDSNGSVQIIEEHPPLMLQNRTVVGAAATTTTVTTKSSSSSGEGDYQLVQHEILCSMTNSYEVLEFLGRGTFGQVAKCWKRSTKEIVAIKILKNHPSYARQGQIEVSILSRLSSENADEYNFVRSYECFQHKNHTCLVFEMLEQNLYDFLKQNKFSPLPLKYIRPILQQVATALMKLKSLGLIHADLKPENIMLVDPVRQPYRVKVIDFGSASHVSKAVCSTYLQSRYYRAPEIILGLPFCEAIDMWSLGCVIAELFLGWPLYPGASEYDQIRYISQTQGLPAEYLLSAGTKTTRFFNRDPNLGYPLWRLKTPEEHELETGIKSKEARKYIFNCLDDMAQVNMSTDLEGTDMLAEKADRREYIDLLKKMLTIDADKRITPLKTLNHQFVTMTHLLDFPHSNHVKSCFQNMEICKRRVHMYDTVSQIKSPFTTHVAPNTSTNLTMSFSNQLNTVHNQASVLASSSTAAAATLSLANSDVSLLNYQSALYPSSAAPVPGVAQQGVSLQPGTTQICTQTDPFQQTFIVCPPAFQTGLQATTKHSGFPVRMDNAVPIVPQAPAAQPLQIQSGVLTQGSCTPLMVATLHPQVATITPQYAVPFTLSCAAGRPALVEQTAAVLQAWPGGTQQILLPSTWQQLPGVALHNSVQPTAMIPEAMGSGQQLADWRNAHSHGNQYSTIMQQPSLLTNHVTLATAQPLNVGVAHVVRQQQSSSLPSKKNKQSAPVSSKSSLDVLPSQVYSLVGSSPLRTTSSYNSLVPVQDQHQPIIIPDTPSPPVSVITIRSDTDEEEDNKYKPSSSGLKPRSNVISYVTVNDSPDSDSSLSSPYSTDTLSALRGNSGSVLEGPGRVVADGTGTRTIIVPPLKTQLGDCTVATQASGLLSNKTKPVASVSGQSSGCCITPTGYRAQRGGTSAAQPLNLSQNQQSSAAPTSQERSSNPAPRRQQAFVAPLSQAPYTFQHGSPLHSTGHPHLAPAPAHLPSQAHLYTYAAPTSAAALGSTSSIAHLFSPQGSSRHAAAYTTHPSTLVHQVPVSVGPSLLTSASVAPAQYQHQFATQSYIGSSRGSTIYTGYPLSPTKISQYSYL
SMILES = O=C(O)/C=C/c1cc(Br)c(Br)c(Br)c1Br; value = 99.6%
SMILES = CC(C)N(CCC(=O)c1ccc2ccccc2c1)Cc1ccccc1; value = 106%
SMILES = c1cc(-c2cnn3cc(-c4ccc(OCCN5CCCCC5)cc4)cnc23)ccn1; value = 97.1%
SMILES = O=Nc1c(-c2c(O)[nH]c3ccccc23)[nH]c2ccccc12; value = 98.9%
SMILES = O=C1NC(=O)/C(=C/c2ccc3c(c2)OC(F)(F)O3)S1; value = 95.9%
SMILES = COc1cc2c(Nc3ccc(Br)cc3F)ncnc2cc1OCC1CCN(C)CC1; value = 96.7%
SMILES = CNc1cc2c(Nc3cccc(Br)c3)ncnc2cn1; value = 96.5%
SMILES = N#CC(c1ccnc(NCCc2cccnc2)n1)c1nc2ccccc2s1 (stereo not drawn); value = 109%
SMILES = O=C(c1ccccc1)c1ccc(N2CCOCC2)cc1O; value = 104%
SMILES = FC(F)(F)c1ccc(/C=C/c2nc(COc3ccc(CCCCn4ccnn4)cc3)co2)cc1; value = 101%
SMILES = NC(=O)c1ccc(-c2nc(-c3ccc4c(c3)OCCO4)c(-c3ccccn3)[nH]2)cc1; value = 101%
SMILES = N#C/C(=C(/N)SC1C=CC=CC1)c1cccc(C(O)c2ccncc2)c1 (stereo not drawn); value = 112%
SMILES = CCN(CC)CCCCN1c2ccccc2Oc2ccc(Cl)cc21; value = 106%
SMILES = C[C@@H](N)[C@H]1CC[C@H](C(=O)Nc2ccncc2)CC1; value = 104%
SMILES = O=C1c2ccccc2-c2nc3nnnn3nc21; value = 99.3%
SMILES = Clc1ccc(Nc2nnc(Cc3ccncc3)c3ccccc23)cc1; value = 99.2%
SMILES = CC(C)n1cnc2c(Nc3cccc(Cl)c3)nc(NCCO)nc21; value = 99.8%
SMILES = CCCCc1c(-c2ccc(O)cc2)[nH]c2nccnc12; value = 97.7%
SMILES = Nc1nc(Nc2ccc(S(N)(=O)=O)cc2)nn1C(=S)Nc1c(F)cccc1F; value = 105%
SMILES = CC(C)(C)c1nc2c3cc[nH]c(=O)c3c3cc(F)ccc3c2[nH]1; value = 88.7%
SMILES = NC(=O)c1cccc(-c2cc(Nc3ccc(OC(F)(F)F)cc3)ncn2)c1; value = 102%
